{"data": "Measurements collected from several papers", "target": "Fibroblast growth factor receptor 1 (FGFR1, Homo sapiens, UniProt P11362)", "note": "Each line is one published result; not all experiments were run side by side. Several values in a cell are separate wells, animals, samples, runs or records.", "sequence of UniProt P11362 (whole entry, looked up)": "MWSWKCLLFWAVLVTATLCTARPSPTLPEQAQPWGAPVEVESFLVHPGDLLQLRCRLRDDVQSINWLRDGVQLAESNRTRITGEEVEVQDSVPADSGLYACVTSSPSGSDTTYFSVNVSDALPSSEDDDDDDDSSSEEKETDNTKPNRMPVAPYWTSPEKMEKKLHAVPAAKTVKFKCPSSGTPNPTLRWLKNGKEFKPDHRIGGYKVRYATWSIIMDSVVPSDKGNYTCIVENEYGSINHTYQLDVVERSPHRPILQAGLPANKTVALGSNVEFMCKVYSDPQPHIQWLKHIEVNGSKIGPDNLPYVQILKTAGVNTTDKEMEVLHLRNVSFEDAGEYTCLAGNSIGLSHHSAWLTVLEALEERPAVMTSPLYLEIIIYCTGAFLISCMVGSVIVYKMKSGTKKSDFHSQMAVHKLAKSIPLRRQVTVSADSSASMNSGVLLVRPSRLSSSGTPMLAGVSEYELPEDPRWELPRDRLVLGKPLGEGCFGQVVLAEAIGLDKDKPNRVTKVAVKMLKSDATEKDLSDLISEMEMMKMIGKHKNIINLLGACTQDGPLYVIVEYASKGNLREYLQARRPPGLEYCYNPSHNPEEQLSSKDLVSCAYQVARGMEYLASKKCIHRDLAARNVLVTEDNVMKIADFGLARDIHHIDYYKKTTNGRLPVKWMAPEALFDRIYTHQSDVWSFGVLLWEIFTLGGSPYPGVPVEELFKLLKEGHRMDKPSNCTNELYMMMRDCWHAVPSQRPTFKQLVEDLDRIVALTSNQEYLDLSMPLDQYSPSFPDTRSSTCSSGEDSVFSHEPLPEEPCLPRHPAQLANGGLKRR"}
{"SMILES": "C=C(C)C(=O)Nc1ccc(-c2c(-c3ccc(Oc4cccc(C)n4)cc3)c3c(N)ncnc3n2C)cc1", "technique": "Caliper mobility shift", "setting": "30 min preincubation", "together with": "100 µM ATP", "IC50": "470 nM"}
{"SMILES": "O=C1Nc2ccc(-c3ccc(C(=O)N4CCCC4)cc3)cc2/C1=C/c1ccc(N2CCNCC2)cc1", "observed": "enzyme activity", "mode": "inhibitor", "technique": "FRET", "IC50": "92.4 nM"}
{"SMILES": "C=CC(=O)N1CC=C(c2c(-c3ccc(Oc4cccc(C)n4)cc3)c3c(N)ncnc3n2C)C1", "technique": "Caliper mobility shift", "setting": "30 min preincubation", "together with": "100 µM ATP", "IC50": "250 nM"}
{"SMILES": "COc1cc2nccc(Oc3ccc(NC(=S)N4CCCC4)c(Cl)c3)c2cc1C(N)=O", "IC50": "227 nM"}
{"SMILES": "CN1CCN(c2ccc(/C=C3\\C(=O)Nc4ccc(-c5ccc(-c6ccc(O)cc6)cc5)cc43)cc2)CC1", "observed": "enzyme activity", "mode": "inhibitor", "technique": "FRET", "IC50": "14.9 nM and < 16 nM"}
{"SMILES": "COc1cc(OC)cc(C(O)c2c[nH]c3ncc(C(F)(F)F)cc23)c1 (centres unmarked)", "observed": "enzyme activity", "mode": "inhibitor", "IC50": "54 nM"}
{"SMILES": "C=C(C)C(=O)Nc1ccc(-c2c(C#Cc3cc(OC)cc(OC)c3)c3c(N)ncnc3n2C)cc1", "technique": "Caliper mobility shift", "setting": "30 min preincubation", "together with": "100 µM ATP", "IC50": "63 nM"}
{"SMILES": "COc1cc2nccc(Oc3ccc(NC(=S)NCC(C)(C)O)c(Cl)c3)c2cc1C(N)=O", "IC50": "4360 nM"}
{"SMILES": "C=CC(=O)N1CCC(c2c(-c3ccc(OC)cc3)c3c(N)ncnc3n2C)C1 (centres unmarked)", "technique": "Caliper mobility shift", "setting": "30 min preincubation", "together with": "100 µM ATP", "IC50": "1440 nM"}
{"SMILES": "CN1CCN(C(=O)c2ccc(-c3ccc4c(c3)/C(=C/c3ccc(N5CCNCC5)cc3)C(=O)N4)cc2)CC1", "observed": "enzyme activity", "mode": "inhibitor", "technique": "FRET", "IC50": "< 16 nM and 10 nM"}
{"SMILES": "Cc1ccc2c(C)c(-c3c4c(N)n[nH]c(=O)c4nn3-c3ccccc3)oc2c1", "observed": "enzyme activity", "mode": "inhibitor", "technique": "ELISA", "IC50": "79 nM"}
{"SMILES": "COc1cccc(Cc2c[nH]c3ncc(C(F)(F)F)cc23)c1", "observed": "enzyme activity", "mode": "inhibitor", "IC50": "83 nM"}
{"SMILES": "COc1cc2nccc(Oc3ccc(NC(=S)N4CCC(F)(F)CC4)c(Cl)c3)c2cc1C(N)=O", "IC50": "457 nM"}
{"SMILES": "C#Cc1cccc(Nc2ncnc3cc(OC)c(OCCCN4CCOCC4)cc23)c1", "observed": "kinase activity", "mode": "inhibitor", "together with": "ATP 80.8 µM", "IC50": "> 10000 nM"}
{"SMILES": "COc1cc2nccc(Oc3ccc4sc(Nc5ccc(Cl)c(F)c5)nc4c3)c2cc1C(N)=O", "IC50": "3680 nM"}
{"SMILES": "C=CC(=O)Nc1ccc(-n2nc3c(=O)[nH]nc(N)c3c2-c2oc3cc(F)ccc3c2C)cc1", "observed": "enzyme activity", "mode": "inhibitor", "technique": "ELISA", "IC50": "79 nM"}
{"SMILES": "COc1cc2nccc(Oc3ccc(NC(=S)NC4CC4)nc3)c2cc1C(N)=O", "IC50": "> 10000 nM"}
{"SMILES": "COc1cc2nccc(Oc3ccc(NC(=O)NC4CC4)c(Cl)c3)c2cc1C(N)=O", "observed": "enzyme activity", "mode": "inhibitor", "IC50": "40 nM"}
{"SMILES": "Cc1cc2c(C)c(-c3c4c(N)n[nH]c(=O)c4nn3-c3ccccc3)oc2cc1Cl", "observed": "enzyme activity", "mode": "inhibitor", "technique": "ELISA", "IC50": "110 nM"}
{"SMILES": "COc1cc2nccc(Oc3ccc(NC(=S)N4CCN(C)CC4)c(Cl)c3)c2cc1C(N)=O", "IC50": "> 10000 nM"}
{"SMILES": "O=C1Nc2ccc(-c3ccc(C(=O)N4CCOCC4)cc3)cc2/C1=C/c1ccc(N2CCNCC2)cc1", "observed": "enzyme activity", "mode": "inhibitor", "technique": "FRET", "IC50": "9.54 nM and < 16 nM"}
{"SMILES": "CCN(CC)CCOc1cc2nccc(Oc3ccc(NC(=S)NC4CC4)c(Cl)c3)c2cc1C(N)=O", "IC50": "9030 nM"}
{"SMILES": "Cc1ccc2oc(-c3c4c(N)n[nH]c(=O)c4nn3-c3ccc([N+](=O)[O-])cc3)c(C)c2c1", "observed": "enzyme activity", "mode": "inhibitor", "technique": "ELISA", "IC50": "44.7 nM"}
